Results pooled from the literature.
Protocols differ between the studies behind these lines. ± marks the error that the study gave.
Cell line: HepG2

For `Cc1c(C(=O)/C=C/c2ccco2)nnn1-c1c(Cl)cc(Cl)cc1Cl`, the IC50 was 17.6 µM (cell growth or viability, MTT).
`COc1cc(/C=C/C(=O)C(Cc2ccc(O)c(OC)c2)C(=O)/C=C/c2ccc(O)c(OC)c2)ccc1O` gave an IC50 of 6.74 µM (cell growth or viability, MTT; 48 h).
`COc1cccc2cc(C(=O)NNC(N)=S)c(=O)oc12` has an IC50 of 10.8 µM (cell growth or viability, SRB; 72 h).
For `COc1ccc2c(c1)OCc1c-2oc2cc3c(cc12)OCO3`, the IC50 was 25.4 µM (cell growth or viability, MTT; 72 h).
For `[NH2][Pt]1([NH2])([Cl])([O]C(=O)C(Cl)Cl)[O]C(=O)C2(CC(=O)C2)C(=O)[O]1`, the IC50 was 10.4 µM (cell growth or viability, MTT).
`COC(=O)C(NC(=O)CNC(=O)CNC(=O)COc1ccc2c(C)cc(=O)oc2c1)c1ccccc1` (stereo in doubt) gave an IC50 of 221 µM (cell growth or viability, MTT).
With `C[C@@H]1O[C@@H](O[C@H]2[C@H](O[C@H]3CC[C@@]4(C)[C@@H](CC[C@]5(C)[C@@H]4CC=C4[C@@H]6CC(C)(C)CC[C@]6(C(=O)O)CC[C@]45C)[C@]3(C)CO)OC[C@H](O[C@@H]3O[C@H](CO)[C@@H](O)[C@H](O)[C@H]3O)[C@@H]2O)[C@H](O)[C@H](O)[C@H]1O` the IC50 was 8.3 µM (NF-κB activity, inhibitor, luciferase; TNF-stimulated).
With `N#Cc1cccc(-c2ccc(=O)n(Cc3cccc(-c4ncc(OCC5CCN(CCCCCC(=O)Nc6cccc7c6C(=O)N(C6CCC(=O)NC6=O)C7=O)CC5)cn4)c3)n2)c1` (stereo not drawn) the IC50 was 1.84 µM (cell growth or viability, CCK-8; 72 h).
With `Nc1nc(-c2ccc3nc(-c4ccc(I)cc4)[nH]c3c2)c[nH]1` the IC50 was 97.1 µM (cell growth or viability, XTT; 24 h).
`C/C(=N\NC(=S)N(C)C)c1ccc(S(=O)(=O)N2CCC(C)CC2)cc1` gave an IC50 of 10.1 µM (cell growth or viability, MTT).
The IC50 of `NC(=O)c1ccc(-c2ccccc2Cl)c2c3c([nH]c12)CCC(N)C3` (stereo not drawn) is reported as 0.023 µM (cell growth or viability).
The IC50 of `O=C1Nc2ccccc2/C1=N/c1ccccc1C(=O)Nc1ccccc1` is reported as 16 µM (cell growth or viability, MTT; 24 h).
`CC(C)=CCc1c(O)cc(CO)cc1O` has an IC50 of over 50 µM (cell growth or viability, CCK-8; 24 h).
`CC(C)Cn1cc(-c2ccnc(Nc3ccc(C(=O)Nc4ccccc4N)cc3)n2)nn1` gave an IC50 of 5.12 µM (cell growth or viability, SRB; 72 h).
`Cc1ccc2nc(Cl)c(-c3nc4cc(Cl)c(Cl)cc4[nH]3)cc2c1` gave an IC50 of over 100 µM (cell growth or viability, MTT; 48 h).
`O=[N+]([O-])[O-].O=[N+]([O-])[O-].[Cu+2].[Cu+2].c1ccc(-c2nc(-c3ccc4c(c3)OCO4)n[n-]2)nc1.c1ccc(-c2nc(-c3ccc4c(c3)OCO4)n[n-]2)nc1` gave an IC50 of 3.58 µM (cell growth or viability, MTT; 24 h).
`COCCSc1nc(N)c2c(F)c(C#N)c(F)c(Cl)c2n1` gave an IC50 of 34 µM (cell growth or viability, MTT; 96 h).
With `COc1ccc2nc(Cl)c(-c3nc4cc(F)ccc4[nH]3)cc2c1` the IC50 was over 100 µM (cell growth or viability, MTT; 48 h).
The IC50 of `CC(=O)OC[C@H]1O[C@@H](n2nc(-c3cc4ccccc4[nH]3)n(-c3ccc(Cl)cc3)c2=S)[C@H](OC(C)=O)[C@@H](OC(C)=O)[C@@H]1OC(C)=O` is reported as 46.4 µM (cell growth or viability, MTT).
With `COc1ccc2nc(Cl)c(-c3nc4cc(Cl)c(Cl)cc4[nH]3)cc2c1` the IC50 was 16.7 µM (cell growth or viability, MTT; 48 h).
For `C=C1C(=O)[C@@]23CC[C@@H]4[C@](C)(COC(C)=O)CCC[C@@]4(COC(C)=O)[C@@H]2[C@@H](O)C[C@@H]1C3`, the IC50 was 5.5 µM (cell growth or viability, MTT).
`COc1cc2nc(N3CCCN(C)CC3)nc(SC3CCN(Cc4ccccc4)CC3)c2cc1OC` has an IC50 of 10.2 µM (cell growth or viability).
With `Cc1ccc2nc(Cl)c(-c3nc4cc(Br)ccc4[nH]3)cc2c1` the IC50 was over 100 µM (cell growth or viability, MTT; 48 h).
For `O=C1CCCC2=C1C(c1cccs1)c1c([nH]c(=S)[nH]c1=S)O2` (stereo not drawn), the IC50 was 15.4 µM (cell growth or viability, MTT; 72 h).
For `CC(=O)N[C@@H]1[C@@H](OC(C)=O)[C@H](OC(C)=O)[C@@H](COC(C)=O)O[C@H]1Sc1nnc(-c2cc3ccccc3[nH]2)n1-c1ccc(Cl)cc1`, the IC50 was 16.9 µM (cell growth or viability, MTT).
`COc1ccc(/C=C/C(=O)/C=C/c2cn(-c3ccccc3)nc2C(=O)O)cc1OC` gave an IC50 of over 25 µM (cell growth; 72 h).
`N#Cc1cccc(-c2ccc(=O)n(Cc3cccc(-c4ncc(OCC5CCN(CC(=O)N6CCN(CCNc7ccc8c(c7)C(=O)N(C7CCC(=O)NC7=O)C8=O)CC6)CC5)cn4)c3)n2)c1` (stereo not drawn) gave an IC50 of 1.95 µM (cell growth or viability, CCK-8; 72 h).
With `COc1ccccc1CNC(=O)CCn1c(=O)[nH]c2ccsc2c1=O` the IC50 was over 50 µM (cell growth or viability, MTT).
`CCC1=C(CC)C2=[N+]3C1=Cc1c(CC)c(CC)c4[n]1[Ir-3]31([Cl])([C]#[O+])[n]3c(c(CC)c(CC)c3=CC3=[N+]1C(=C4)C(CC)=C3CC)=C2` gave an IC50 of over 50 µM (cell growth or viability, MTT; 72 h).
`CC(C)(O)[C@@H]1CC[C@](C)([C@H]2CC[C@]3(C)[C@@H]2CC[C@@H]2[C@@]4(C)CCC(=O)C(C)(C)[C@@H]4CC[C@]23C)O1` gave an IC50 of over 100 µM (cell growth or viability, SRB).
`C/C(=N\NC(N)=S)c1c(O)c2ccccc2oc1=O` has an IC50 of 61.4 µM (cell growth or viability, MTT; 48 h).
For `Nc1ccccc1NC(=O)c1ccc(Nc2nccc(-c3cn(C4CCCCC4)nn3)n2)cc1`, the IC50 was 3.3 µM (cell growth or viability, SRB; 72 h).
The IC50 of `COC(=O)CNc1cc(CS(=O)(=O)c2ccc3ccccc3c2)ccc1OC` is reported as 0.535 µM (cell growth or viability, MTS; 48 h).
`CCN(CC)c1ccc2c(c1)Oc1cc(N(CC)CC)ccc1C21c2ccccc2C(=O)N1N=Cc1c[c-]c(-c2ccccn2)cc1.Cc1c(C)c(-c2ccc(-c3ccccc3)cc2)[c-](C)c1C.[Cl-].[Ir+3]` gave an IC50 of 28.7 ± 6.9 µM (cell growth, MTT; 24 h).
With `COc1ccccc1/C=N/NC(=O)c1cc2cc(Nc3nccc(-c4cccnc4)n3)ccc2[nH]1` the IC50 was 10.9 µM (cell growth or viability, MTT; 48 h).
`COc1cc2ncnc(Nc3ccc(F)c(Cl)c3)c2cc1NC(=O)N/N=C/c1ccc[nH]1` has an IC50 of 9.18 µM (cell growth or viability, MTT; 72 h).
For `COc1cc(OC)c(/C=C/C(=O)c2c(OC)cc(OC)cc2OC)c(OC)c1`, the IC50 was 87.6 µM (cell growth or viability, MTT; 48 h).
`Cc1cc(C#N)cc(C)c1Oc1cc(Nc2ccc(C#N)cc2)nc2cnccc12` gave an IC50 of over 128 µM (48 h).
The IC50 of `CCCCSc1nc(N)c2c(F)c(C#N)c(F)c(Cl)c2n1` is reported as 69.5 µM (cell growth or viability, MTT; 96 h).
For `[Cl][Pd-2]1([Cl])[N+](=Cc2ccc[nH]2)Cc2cccc[n+]21`, the IC50 was 13 µg/mL (cell growth or viability, MTT; 24 h).
`COc1ccc(C(c2c[nH]c3ccccc23)c2c[nH]c3ccccc23)cc1` has an IC50 of 4.93 µM (cell growth or viability, MTT; 24 h).
`CCOc1cc(/C=C/C(=O)/C=C/c2cn(-c3ccccc3)nc2C(=O)O)ccc1O` gave an IC50 of over 25 µM (cell growth; 72 h).
The IC50 of `CC(=O)[O-].O.O.[O-]c1ccc(Br)cc1C=NCCN1CCOCC1.[Zn+2]` is reported as 33.5 µg/mL (cell viability, MTT; 72 h).
With `COc1ccc(CN2C(=O)C(=O)c3cc(NC(C)=O)ccc32)cc1` the IC50 was 0.42 µM (cell growth or viability, MTT; 48 h).
For `Cc1ccc(C(c2c[nH]c3ccccc23)c2c[nH]c3ccccc23)cc1`, the IC50 was 7.18 µM (cell growth or viability, MTT; 24 h).
With `CSC(=NN=C(C)c1ccc(S(=O)(=O)N2CCC(C)CC2)cc1)N(C)C` the IC50 was 3.33 µM (cell growth or viability, MTT).
With `CCOC(=O)c1ccc(NC(=O)C(C#N)=C2C(=O)c3ccccc3C2=O)cc1` the IC50 was 28.1 µM (cell growth or viability, MTT; 24 h).
`CC(=O)OC[C@H]1O[C@@H](N2C(=O)/C(=C/c3ccc4c(c3)OCCO4)SC2=S)[C@H](OC(C)=O)[C@@H](OC(C)=O)[C@@H]1OC(C)=O` gave an IC50 of 11.3 µM (cell growth or viability, MTT; 48 h).
For `Cc1cc(C#N)cc(C)c1Oc1cc(Nc2ccc(C#N)cn2)nc2ccncc12`, the IC50 was over 127 µM (48 h).
With `CCOc1cccc2c1[O][Pt-2]1([Cl])[N+](=C2)c2ccccc2[NH+]1c1ccccc1` (stereo not drawn) the IC50 was 10.2 ± 0.24 µM (cell viability, MTT; 48 h).
With `C=CC(OC(C)=O)c1ccccc1` (stereo not drawn) the IC50 was over 50 µM (MTT; 24 h).
With `CCNC(=S)N/N=C(\C)c1c(O)c2ccccc2oc1=O` the IC50 was 46.4 µM (cell growth or viability, MTT; 48 h).
`CC(=O)OC[C@]1(C)CCC[C@]2(COC(C)=O)[C@@H]1CC[C@@]13C[C@@H](C[C@H](O)[C@H]12)[C@@H](C)C3=O` gave an IC50 of over 20 µM (cell growth or viability, MTT).
The IC50 of `N#Cc1c(F)c(Cl)c2nc(SCC3CCCO3)nc(N)c2c1F` (stereo not drawn) is reported as 26.1 µM (cell growth or viability, MTT; 96 h).
For `N#Cc1cccc(-c2ccc(=O)n(Cc3cccc(-c4ncc(OCC5CCN(CCCCCCC(=O)Nc6cccc7c6C(=O)N(C6CCC(=O)NC6=O)C7=O)CC5)cn4)c3)n2)c1` (stereo not drawn), the IC50 was 4.14 µM (cell growth or viability, CCK-8; 72 h).
With `CC(C)(C)c1cc2c(O)c(c1)Cc1cc(C(C)(C)C)cc(c1OCC(=O)NCc1ccncc1)Cc1cc(C(C)(C)C)cc(c1O)Cc1cc(C(C)(C)C)cc(c1OCC(=O)NCc1ccncc1)COC2` the IC50 was 17.6 µM (cell growth or viability, MTT; 72 h).
`CCOc1cccc(/C=N/CCNc2ccccc2)c1O` gave an IC50 of 116 µM (cell growth or viability, MTT; 48 h).
`Cc1ccc2nc(Cl)c(-c3nc4ccccc4[nH]3)cc2c1` gave an IC50 of over 100 µM (cell growth or viability, MTT; 48 h).
For `C=C(C)[C@@H]1CC[C@]2(COC(=O)CCC(=O)O)CC[C@]3(C)[C@H](CC[C@@H]4[C@@]5(C)CC[C@H](OC(=O)CCC(=O)O)C(C)(C)[C@@H]5CC[C@]43C)[C@@H]12`, the IC50 was 8.02 µg/mL (cell growth or viability, SRB; 72 h).
`C[C@]12CC[C@@H]3c4ccc(O)cc4CC[C@H]3[C@@H]1CC[C@@]2(O)c1cn(CC(=O)c2cccc(F)c2)nn1` gave an IC50 of 28.2 µM (cell growth or viability, resazurin; 72 h).

Some of these lines once more:
`CCN(CC)c1ccc2c(c1)Oc1cc(N(CC)CC)ccc1C21c2ccccc2C(=O)N1N=Cc1c[c-]c(-c2ccccn2)cc1.Cc1c(C)c(-c2ccc(-c3ccccc3)cc2)[c-](C)c1C.[Cl-].[Ir+3]` gave an IC50 of 28.7 ± 6.9 µM (cell growth, MTT; 24 h).
With `COc1ccccc1/C=N/NC(=O)c1cc2cc(Nc3nccc(-c4cccnc4)n3)ccc2[nH]1` the IC50 was 10.9 µM (cell growth or viability, MTT; 48 h).
`COc1cc2ncnc(Nc3ccc(F)c(Cl)c3)c2cc1NC(=O)N/N=C/c1ccc[nH]1` has an IC50 of 9.18 µM (cell growth or viability, MTT; 72 h).
For `COc1cc(OC)c(/C=C/C(=O)c2c(OC)cc(OC)cc2OC)c(OC)c1`, the IC50 was 87.6 µM (cell growth or viability, MTT; 48 h).
`Cc1cc(C#N)cc(C)c1Oc1cc(Nc2ccc(C#N)cc2)nc2cnccc12` gave an IC50 of over 128 µM (48 h).
The IC50 of `CCCCSc1nc(N)c2c(F)c(C#N)c(F)c(Cl)c2n1` is reported as 69.5 µM (cell growth or viability, MTT; 96 h).
For `[Cl][Pd-2]1([Cl])[N+](=Cc2ccc[nH]2)Cc2cccc[n+]21`, the IC50 was 13 µg/mL (cell growth or viability, MTT; 24 h).
`COc1ccc(C(c2c[nH]c3ccccc23)c2c[nH]c3ccccc23)cc1` has an IC50 of 4.93 µM (cell growth or viability, MTT; 24 h).
`CCOc1cc(/C=C/C(=O)/C=C/c2cn(-c3ccccc3)nc2C(=O)O)ccc1O` gave an IC50 of over 25 µM (cell growth; 72 h).
The IC50 of `CC(=O)[O-].O.O.[O-]c1ccc(Br)cc1C=NCCN1CCOCC1.[Zn+2]` is reported as 33.5 µg/mL (cell viability, MTT; 72 h).
